# Measurements pooled from the literature.
# Lines come from different studies, so protocols differ.
# CIT: Citron Rho-interacting kinase (CIT, Homo sapiens, UniProt O14578)
# Sequence of UniProt O14578 (whole entry, looked up): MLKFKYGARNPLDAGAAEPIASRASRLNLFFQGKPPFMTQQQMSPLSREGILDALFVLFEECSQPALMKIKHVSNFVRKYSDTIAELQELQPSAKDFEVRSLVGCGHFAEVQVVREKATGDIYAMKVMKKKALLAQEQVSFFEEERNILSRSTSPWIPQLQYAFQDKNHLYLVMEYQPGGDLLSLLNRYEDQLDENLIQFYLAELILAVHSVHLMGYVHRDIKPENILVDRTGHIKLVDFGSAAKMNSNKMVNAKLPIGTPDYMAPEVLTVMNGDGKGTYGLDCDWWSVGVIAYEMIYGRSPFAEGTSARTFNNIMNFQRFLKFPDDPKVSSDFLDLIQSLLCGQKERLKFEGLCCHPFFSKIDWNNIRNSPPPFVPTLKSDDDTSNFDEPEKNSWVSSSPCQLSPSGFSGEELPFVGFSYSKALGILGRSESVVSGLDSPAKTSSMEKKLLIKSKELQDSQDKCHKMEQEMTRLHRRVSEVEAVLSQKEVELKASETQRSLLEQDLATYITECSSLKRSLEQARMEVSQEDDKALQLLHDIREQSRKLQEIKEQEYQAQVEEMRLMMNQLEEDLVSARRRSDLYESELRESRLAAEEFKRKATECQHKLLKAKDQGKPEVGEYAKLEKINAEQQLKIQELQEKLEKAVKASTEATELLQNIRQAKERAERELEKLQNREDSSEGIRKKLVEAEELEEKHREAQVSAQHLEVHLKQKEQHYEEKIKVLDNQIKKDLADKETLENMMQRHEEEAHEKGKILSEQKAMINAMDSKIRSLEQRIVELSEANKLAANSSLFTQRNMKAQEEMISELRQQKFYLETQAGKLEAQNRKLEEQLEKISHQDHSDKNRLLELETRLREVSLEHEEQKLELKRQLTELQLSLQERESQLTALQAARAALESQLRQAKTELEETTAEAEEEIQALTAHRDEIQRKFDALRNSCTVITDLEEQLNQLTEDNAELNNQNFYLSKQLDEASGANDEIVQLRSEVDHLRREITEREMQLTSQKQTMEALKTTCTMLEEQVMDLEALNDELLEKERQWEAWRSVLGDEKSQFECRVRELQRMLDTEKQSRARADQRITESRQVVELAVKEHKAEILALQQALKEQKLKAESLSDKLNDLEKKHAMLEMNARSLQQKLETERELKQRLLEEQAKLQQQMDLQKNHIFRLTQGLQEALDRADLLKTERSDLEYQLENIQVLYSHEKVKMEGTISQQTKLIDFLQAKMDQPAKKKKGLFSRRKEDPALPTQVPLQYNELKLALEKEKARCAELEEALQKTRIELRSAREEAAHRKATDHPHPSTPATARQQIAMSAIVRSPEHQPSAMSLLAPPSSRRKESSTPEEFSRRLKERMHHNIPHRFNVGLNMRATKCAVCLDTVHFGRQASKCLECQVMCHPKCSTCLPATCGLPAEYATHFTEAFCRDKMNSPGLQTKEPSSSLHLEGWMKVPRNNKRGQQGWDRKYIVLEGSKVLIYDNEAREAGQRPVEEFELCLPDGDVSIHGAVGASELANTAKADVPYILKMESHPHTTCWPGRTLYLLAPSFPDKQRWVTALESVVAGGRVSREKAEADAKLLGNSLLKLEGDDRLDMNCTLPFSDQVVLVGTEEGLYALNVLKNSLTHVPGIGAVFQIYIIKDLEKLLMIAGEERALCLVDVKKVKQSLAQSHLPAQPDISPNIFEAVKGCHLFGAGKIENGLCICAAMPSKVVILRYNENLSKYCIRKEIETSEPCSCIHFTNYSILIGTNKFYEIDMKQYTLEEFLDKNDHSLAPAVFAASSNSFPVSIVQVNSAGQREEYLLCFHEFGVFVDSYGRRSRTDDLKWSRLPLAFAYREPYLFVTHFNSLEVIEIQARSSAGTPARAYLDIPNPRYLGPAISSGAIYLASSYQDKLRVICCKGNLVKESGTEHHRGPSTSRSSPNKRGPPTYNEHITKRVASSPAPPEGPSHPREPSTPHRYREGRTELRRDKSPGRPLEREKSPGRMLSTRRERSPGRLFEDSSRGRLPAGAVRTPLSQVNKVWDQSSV
# Sequence of UniProt Q16816 (whole entry, looked up): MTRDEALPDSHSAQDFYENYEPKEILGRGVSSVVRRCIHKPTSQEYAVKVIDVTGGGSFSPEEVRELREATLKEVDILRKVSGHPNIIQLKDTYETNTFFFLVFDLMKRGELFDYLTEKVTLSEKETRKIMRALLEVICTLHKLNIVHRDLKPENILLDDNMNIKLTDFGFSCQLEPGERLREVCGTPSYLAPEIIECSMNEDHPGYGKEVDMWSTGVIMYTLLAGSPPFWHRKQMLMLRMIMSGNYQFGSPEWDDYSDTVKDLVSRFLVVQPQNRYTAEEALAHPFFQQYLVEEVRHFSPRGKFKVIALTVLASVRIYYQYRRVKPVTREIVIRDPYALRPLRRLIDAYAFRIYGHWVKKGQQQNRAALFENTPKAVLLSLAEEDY
Structure (SMILES),target or system,test,system,conditions,measurement,value
NCCNC(=O)O[C@H]1CCC[C@@]2(C1)OOC1(O2)C2CC3CC(C2)CC1C3 (stereo partly drawn),,,"male CD-1 mouse, plasma","intravenous, 3 mg/kg",half-life,1.66 h
CC[C@@H](C)[C@H]1NC(=O)[C@@H](Cc2ccc(O)cc2)NC(=O)[C@H](CCCNC(=N)N)NC(=O)[C@H](CCSC)NC(=O)[C@H](CC(C)C)NC(=O)[C@H](CC(C)C)NC(=O)[C@H]2CCCN2C(=O)[C@H](CC(C)C)NC(=O)CNC(=O)CNC(=O)CNC1=O,,,aqueous buffer,"18 h, pH 7.4",thermodynamic solubility,655 µM
CC(C)C[C@H](NC(=O)[C@H](Cc1ccccc1)NC(=O)[C@H](Cc1ccccc1)NC(=O)Cc1ccc(-c2ccccc2)cc1)C(=O)N[C@@H](CCCCN)C(=O)N[C@@H](CCCNC(=N)N)C(=O)N[C@H](C(=O)N[C@@H](Cc1c[nH]c2ccccc12)C(=O)N[C@@H](CCCCN)C(=O)N[C@@H](CCCNC(=N)N)C(=O)O)C(C)C,,metabolic stability,"monkey, liver microsomes",30 min,compound remaining,11.1%
Cc1nn(C)cc1-c1nc2c(N3CCN(Cc4ccc(Cl)cc4)CC3)c(Cl)cnc2[nH]1,CIT,"binding, competition with immobilised ligand",,1 µM,remaining binding,83%
Nc1nc(N)c(OCCCOc2ccccc2CCC(=O)O)c(C2CCCCC2)n1,,,"female BALB/c mouse, plasma","oral, 3 mg/kg",half-life,2.5 h
N=c1c2c(-c3ccccc3)c(-c3ccccc3)n(Cc3ccccc3)c2ncn1[C@H]1CC[C@H](O)CC1,,,"female minipig, plasma","oral, 2.5 mg/kg, single dose",AUC(0-t),73500 ng·h/mL
CC(C)C[C@@H]1NC(=O)[C@H](CCC(=O)O)NC(=O)[C@H]2CCCN2C(=O)[C@@H](N)CSSC[C@@H](C(=O)O)NC(=O)[C@@H]2CCCN2C(=O)[C@H](Cc2ccccc2)NC(=O)[C@H](CC(C)C)N(C)C(=O)[C@H]([C@@H](C)O)NC(=O)[C@H](C(C)C)NC1=O,,,aqueous buffer,"18 h, pH 7.4",solubility,741 µM
[2H]c1c([2H])c([C@]2([2H])CCCN2C(=O)C(C)(C)Oc2ccc3cn[nH]c3c2)c([2H])c([2H])c1C([2H])([2H])[2H],"Phosphorylase b kinase gamma catalytic chain, skeletal muscle/heart isoform (PHKG1, Homo sapiens, UniProt Q16816)","binding, competition with immobilised ligand",,1 µM,remaining binding,84%
CC[C@H](C)[C@H]1C(=O)N[C@H](Cc2ccc(O)cc2)C(=O)N[C@H](C(=O)O)CSSC[C@H](N)C(=O)N[C@@H](Cc2ccccc2)C(=O)N[C@@H](C(C)C)C(=O)N[C@@H](CC(C)C)C(=O)N2CCC[C@H]2C(=O)N[C@@H](CC(N)=O)C(=O)N[C@@H](Cc2ccc(O)cc2)C(=O)N1C,,,aqueous buffer,"18 h, pH 7.4",solubility,646 µM
Cc1ncsc1-c1ccc([C@H](C)NC(=O)[C@@H]2C[C@@H](O)CN2C(=O)[C@@H](NC(=O)CCN2CC3(CC(Nc4ccc(C(=O)NCCCn5cc(-c6ccc7c(c6)CCN7C(=O)Cc6cccc(OC(F)(F)F)c6)c6c(N)ncnc65)cn4)C3)C2)C(C)(C)C)cc1,,metabolic stability,"mouse, liver S9",1 µM,half-life,0.44 h
COc1ncccc1-c1cnn2ccc(N3CCN(C(=O)OC(C)C)CC3)nc12,CIT,"binding, competition with immobilised ligand",,1 µM,remaining binding,92%
CN1CCN(S(=O)(=O)c2cc([N+](=O)[O-])ccc2N(CCOS(C)(=O)=O)CCOS(C)(=O)=O)CC1,,,"female SCID mouse, plasma","intraperitoneal, 25 mg/kg",half-life,0.35 h

# For quick reference, copied from above:
Structure (SMILES),target or system,test,system,conditions,measurement,value
CN1CCN(S(=O)(=O)c2cc([N+](=O)[O-])ccc2N(CCOS(C)(=O)=O)CCOS(C)(=O)=O)CC1,,,"female SCID mouse, plasma","intraperitoneal, 25 mg/kg",half-life,0.35 h
